Experimental data collected from several papers.
Compare with care: the assays were run in different laboratories. ± gives the spread as reported.

C[C@H]1C(OC(=O)C(Cl)Cl)O[C@@H]2O[C@@]3(C)CC[C@H]4[C@H](C)CCC1[C@@]24OO3 (stereo partly drawn)  dead embryos (Tg(fli1:EGFP) zebrafish embryos; 25 µg/mL, up to 48 hpf): 0 count
CN(C)C(CNC(=O)Nc1cc(C(F)(F)F)ccc1N1CCOCC1)c1ccncc1 (stereo not drawn)  serum creatinine (mouse, serum; intraperitoneal, 180 mg/kg single dose): 0.2 mg/dL
CC(=CCC(O)C(C)=Cc1csc(C)n1)CC=CC(C)C(O)C(C)C(=O)C(C)(C)C(O)CC(=O)O (stereo not drawn)  AUC (human, plasma; intravenous infusion, 27 mg/m2 KOS-1584, 3 h infusion, cycle 1): 319 ± 106 ng·h/mL
COC(=O)C[C@](O)(CCCC(C)(C)OC(C)=O)C(=O)O[C@@H]1C(OC)=C[C@]23CCCN2CCc2cc4c(cc2[C@H]13)OCO4  tissue concentration (CD1 mouse, spleen; subcutaneous, 1 mg/kg, 24 h, below quantification limit 1.00 ng/mL): not detected
CCNc1cc2[o+]c3cc(NCC)c(C)cc3c(-c3ccccc3C(=O)OCCOCC[18F])c2cc1C  tissue uptake ratio (rat; 15 min; baseline: heart over bone): 4.4
CN[C@](C)(C[18F])C(=O)O  tracer uptake (mouse, bone; 30 min, tumour-bearing): 3.5 %ID/g
COc1ccc2c(c1)C(C)(C)C(/C=C/C1=C(Oc3ccc(C(=O)NCCCCOc4cc(CN(Cc5ccccn5)Cc5ccccn5)cc(CN(Cc5ccccn5)Cc5ccccn5)c4)cc3)C(=C/C=C3/N(CCCCS(=O)(=O)[O-])c4ccc(OC)cc4C3(C)C)CCC1)=[N+]2CCCCS(=O)(=O)[O-].O=[N+]([O-])O.O=[N+]([O-])[O-].O=[N+]([O-])[O-].O=[N+]([O-])[O-].[Zn+2].[Zn+2]  photoacoustic maximum wavelength (whole mouse blood; 64 µM): 810 nm
CN(C)c1ccc(OC(=O)NC2CCCCC2)cc1-c1ccccc1  log hydrolysis rate constant (rat plasma): -2.86
Cc1cc(C)c(-c2cc(C)c(OP(=O)([O-])OCCC[C@H](C(=O)[O-])N3CCN(CC(=O)[O-])CCN(CC(=O)[O-])CCN(CC(=O)[O-])CC3)cc2C)c(C)c1.[Gd+3]  water residency time (O-17 NMR; PBS; 37 °C, no protein, 7.05 T): 85 ns
CC(C)[C@H](NC(=O)CNC(=O)[C@H](CCC(N)=O)NC(=O)[C@H](C)N)C(=O)O  subjects with adverse events (healthy human; intravenous, 10 mg/kg single dose; baseline: subjects): 33.3%
CC[C@H](C)C(=O)N1CCC(NC(=O)Nc2ccc(OC(F)(F)F)c(F)c2)CC1  AUC(0-48 h) (human; oral, 8 mg, fed, geometric LS mean): 2020 ng·h/mL
CC[C@H](C)[C@H](NC(=O)[C@H](Cc1ccccc1)NC(=O)[C@H](CC(=O)O)NC(=O)[C@H](CCCN)NC(=O)[C@H](Cc1ccccc1)NC(=O)[C@H](Cc1ccccc1)NC(=O)[C@H](CCCCN)NC(=O)[C@H](CN)NC(=O)[C@H](CC(C)C)NC(=O)[C@H](CCCNC(=N)N)NC(=O)[C@H](CCSC)NC(=O)[C@H](C)N)C(=O)N[C@@H](CC(C)C)C(=O)N[C@@H](CCC(N)=O)C(=O)N[C@@H](CCCNC(=N)N)C(=O)N[C@@H](CCCCN)C(=O)N[C@@H](CCCCN)C(=O)O  helicity (circular dichroism; 20% TFE in PBS; 200 µM, pH 7.4, 25 °C): 19.1%
CC[C@H](C)[C@@H]1NC(=O)[C@H](CCCCN)NC(=O)[C@H](CCCCN)NC(=O)[C@H](Cc2ccc(O)cc2)NC(=O)[C@H](CC(C)C)NC(=O)[C@@H]2CCCN2C(=O)[C@H](C)NC(=O)CNC(=O)CNC(=O)[C@H](CO)NC(=O)CNC(=O)CNC(=O)[C@H](CCCNC(=N)N)NC(=O)[C@H](CCC(=O)O)NC(=O)[C@H](CC(C)C)NC(=O)[C@H](Cc2c[nH]cn2)NC(=O)[C@H](CCCCN)NC(=O)[C@H](CCCCN)NC(=O)[C@H]([C@@H](C)CC)NC(=O)[C@H]([C@@H](C)CC)NC(=O)[C@H](CCCCN)NC(=O)[C@H](CCCCN)NC(=O)[C@H](Cc2ccc(O)cc2)NC(=O)[C@H](CC(C)C)NC(=O)[C@@H]2CCCN2C(=O)CNC(=O)CNC(=O)[C@@H](NC(=O)CN)CSSC[C@@H](C(N)=O)NC(=O)[C@H](Cc2c[nH]cn2)NC(=O)[C@H](CCCCN)NC(=O)[C@H](CCCCN)NC(=O)[C@H]([C@@H](C)CC)NC1=O  remaining intact peptide (25% human serum; 50 µM, 24 h; baseline: 0 h control): 0%
[2H]C([2H])([2H])C([2H])([2H])C([2H])([2H])OC(C(=O)OC1CCNCC1)(c1ccccc1)c1ccccc1  adverse drug reactions (item: acne; healthy Japanese male; oral, 12 mg, 16 days, multiple ascending dose): 0%
CCCCCCCCCCCCC(=O)O.O=C1CCCC2C3CCCN4CCCC(CN12)C34 (stereo not drawn)  entropic term −TΔS of micellization (electrical conductivity; water; 293.15 K, critical micelle concentration): -5.82 kcal/mol
C[C@H]1CN(Cc2ccc(C(F)(F)F)cc2N2C3CCC2CN(CC(=O)O)C3)CCN1C(=O)n1ccc(S(=O)(=O)N(C)C)n1  microsomal CLint (metabolic stability; human, liver microsomes): 4.8 µL/min/mg
[3H]c1sc(C)nc1C=C(C)C1CC2C(CCCC(C)C(O)C(C)C(=O)C(C)(C)C(O)CC(=O)O1)N2CCO (stereo not drawn)  tissue concentration (LC-MS/MS; CD2F1 mice tumour-bearing, heart; intravenous, 2.2 nmol/kg, 24 h): 330 ± 70 ng/g
CC(C)C[C@H](NC(=O)[C@H](CCCCN)NC(=O)[C@H](CCC(=O)O)NC(=O)[C@H](C)NC(=O)[C@@H](NC(=O)[C@H](CCCCN)NC(=O)[C@H](CC(=O)O)NC(=O)[C@H](Cc1ccc(O)cc1)NC(=O)[C@H](Cc1ccccc1)NC(=O)[C@H](C)NC(=O)[C@H](CCCCN)NC(=O)[C@H](CC(C)C)NC(=O)[C@H](Cc1c[nH]c2ccccc12)NC(=O)[C@@H](N)CC(=O)O)C(C)C)C(=O)N[C@@H](CCCCN)C(=O)N[C@@H](CCC(=O)O)C(=O)N[C@@H](C)C(=O)N[C@@H](Cc1ccccc1)C(=O)N1CCC[C@H]1C(=O)N[C@@H](CC(=O)O)C(=O)N[C@@H](Cc1c[nH]c2ccccc12)C(=O)N[C@@H](C)C(=O)N[C@@H](CCCCN)C(=O)N[C@@H](C)C(=O)N[C@@H](C)C(=O)N[C@@H](Cc1ccc(O)cc1)C(=O)N[C@@H](CC(=O)O)C(=O)N[C@@H](CCCCN)C(=O)N[C@@H](C)C(=O)N[C@@H](C)C(=O)N[C@@H](CCC(=O)O)C(=O)N[C@@H](CCCCN)C(=O)N[C@@H](C)C(=O)N[C@@H](CCCCN)C(=O)N[C@@H](CCC(=O)O)C(=O)N[C@@H](C)C(=O)N[C@@H](C)C(=O)O  half-life (cynomolgus monkey male, plasma; intravenous infusion, 25 mg/kg, day 1, 30 min infusion): 3.7 h
Cn1c2cc([S+](C)[O-])sc2c2cnn(Cc3cccc(N)c3)c(=O)c21 (stereo not drawn)  toxicity (nu/nu mouse, H1299 xenograft; 50 mg/kg twice daily, 7 weeks): not toxic
CC(C)[C@H](NC(=O)CNC(=O)[C@H](CCC(N)=O)NC(=O)[C@H](C)N)C(=O)O  subjects given concomitant medication (healthy male volunteers; intravenous, 45 mg/kg/h, 2 h, added: LPS 2 ng/kg): 12.5%
Cc1ccc2c(n1)c(-c1cccc(S(C)(=O)=O)c1)c(C)n2C/C(F)=C/CN  terminal half-life (healthy male volunteers, plasma; oral, 200 mg, day 1, multiple ascending dose): 29.5 to 34 h

Repeated from above:
CC(C)[C@H](NC(=O)CNC(=O)[C@H](CCC(N)=O)NC(=O)[C@H](C)N)C(=O)O  subjects with adverse events (healthy human; intravenous, 10 mg/kg single dose; baseline: subjects): 33.3%
